Published values pooled from the literature.
Parts stem from different laboratories: compare values within a part only.
UniProt P54756, sequence (whole entry, looked up): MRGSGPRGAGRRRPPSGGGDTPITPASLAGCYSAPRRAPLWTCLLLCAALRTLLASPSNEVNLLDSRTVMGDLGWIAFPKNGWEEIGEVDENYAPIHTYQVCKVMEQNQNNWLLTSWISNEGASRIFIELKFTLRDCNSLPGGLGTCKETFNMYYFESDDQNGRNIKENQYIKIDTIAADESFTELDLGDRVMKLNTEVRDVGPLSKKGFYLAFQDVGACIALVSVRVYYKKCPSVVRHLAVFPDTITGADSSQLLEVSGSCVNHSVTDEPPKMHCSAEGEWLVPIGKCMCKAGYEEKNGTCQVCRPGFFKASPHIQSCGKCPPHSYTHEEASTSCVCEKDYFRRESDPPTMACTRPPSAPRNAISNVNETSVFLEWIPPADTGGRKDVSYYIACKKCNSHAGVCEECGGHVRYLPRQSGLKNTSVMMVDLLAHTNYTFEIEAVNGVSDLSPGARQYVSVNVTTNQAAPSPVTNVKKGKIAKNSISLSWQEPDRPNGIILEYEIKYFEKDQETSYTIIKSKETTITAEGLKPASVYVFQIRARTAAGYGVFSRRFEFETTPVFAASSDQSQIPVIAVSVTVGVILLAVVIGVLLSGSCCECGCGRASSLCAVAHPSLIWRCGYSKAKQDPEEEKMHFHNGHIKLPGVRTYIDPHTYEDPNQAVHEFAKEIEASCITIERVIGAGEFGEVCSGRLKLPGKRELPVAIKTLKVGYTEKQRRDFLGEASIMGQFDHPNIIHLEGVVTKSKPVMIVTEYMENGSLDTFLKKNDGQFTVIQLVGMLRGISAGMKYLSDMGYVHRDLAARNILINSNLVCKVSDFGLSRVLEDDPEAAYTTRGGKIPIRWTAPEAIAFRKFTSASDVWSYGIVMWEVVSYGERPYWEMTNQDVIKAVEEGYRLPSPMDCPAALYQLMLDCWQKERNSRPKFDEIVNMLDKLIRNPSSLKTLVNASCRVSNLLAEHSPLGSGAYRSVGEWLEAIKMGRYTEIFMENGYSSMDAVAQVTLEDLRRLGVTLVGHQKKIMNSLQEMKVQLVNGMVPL
UniProt Q32MK0, sequence (whole entry, looked up): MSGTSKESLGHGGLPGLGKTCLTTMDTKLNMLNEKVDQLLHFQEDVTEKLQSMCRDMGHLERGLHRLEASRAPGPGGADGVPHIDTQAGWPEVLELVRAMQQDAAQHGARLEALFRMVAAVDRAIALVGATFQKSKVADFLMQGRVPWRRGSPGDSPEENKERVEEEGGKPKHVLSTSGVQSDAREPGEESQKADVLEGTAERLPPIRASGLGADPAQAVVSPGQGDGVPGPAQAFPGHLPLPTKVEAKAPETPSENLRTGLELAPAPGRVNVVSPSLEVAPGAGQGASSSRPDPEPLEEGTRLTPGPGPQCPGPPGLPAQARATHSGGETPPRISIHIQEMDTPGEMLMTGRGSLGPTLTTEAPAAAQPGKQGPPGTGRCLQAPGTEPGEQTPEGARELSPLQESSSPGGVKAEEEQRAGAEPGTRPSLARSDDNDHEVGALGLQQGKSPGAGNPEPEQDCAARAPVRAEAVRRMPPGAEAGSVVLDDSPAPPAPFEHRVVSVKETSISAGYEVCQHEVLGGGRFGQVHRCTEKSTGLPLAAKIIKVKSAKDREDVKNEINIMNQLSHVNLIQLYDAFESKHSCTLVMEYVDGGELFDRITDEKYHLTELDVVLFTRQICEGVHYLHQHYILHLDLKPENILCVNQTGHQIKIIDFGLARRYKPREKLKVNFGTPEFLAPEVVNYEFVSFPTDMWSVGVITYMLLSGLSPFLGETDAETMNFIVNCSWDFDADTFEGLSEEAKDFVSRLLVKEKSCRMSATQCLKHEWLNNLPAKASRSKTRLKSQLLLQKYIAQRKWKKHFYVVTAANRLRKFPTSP
UniProt Q8TF76, sequence (whole entry, looked up): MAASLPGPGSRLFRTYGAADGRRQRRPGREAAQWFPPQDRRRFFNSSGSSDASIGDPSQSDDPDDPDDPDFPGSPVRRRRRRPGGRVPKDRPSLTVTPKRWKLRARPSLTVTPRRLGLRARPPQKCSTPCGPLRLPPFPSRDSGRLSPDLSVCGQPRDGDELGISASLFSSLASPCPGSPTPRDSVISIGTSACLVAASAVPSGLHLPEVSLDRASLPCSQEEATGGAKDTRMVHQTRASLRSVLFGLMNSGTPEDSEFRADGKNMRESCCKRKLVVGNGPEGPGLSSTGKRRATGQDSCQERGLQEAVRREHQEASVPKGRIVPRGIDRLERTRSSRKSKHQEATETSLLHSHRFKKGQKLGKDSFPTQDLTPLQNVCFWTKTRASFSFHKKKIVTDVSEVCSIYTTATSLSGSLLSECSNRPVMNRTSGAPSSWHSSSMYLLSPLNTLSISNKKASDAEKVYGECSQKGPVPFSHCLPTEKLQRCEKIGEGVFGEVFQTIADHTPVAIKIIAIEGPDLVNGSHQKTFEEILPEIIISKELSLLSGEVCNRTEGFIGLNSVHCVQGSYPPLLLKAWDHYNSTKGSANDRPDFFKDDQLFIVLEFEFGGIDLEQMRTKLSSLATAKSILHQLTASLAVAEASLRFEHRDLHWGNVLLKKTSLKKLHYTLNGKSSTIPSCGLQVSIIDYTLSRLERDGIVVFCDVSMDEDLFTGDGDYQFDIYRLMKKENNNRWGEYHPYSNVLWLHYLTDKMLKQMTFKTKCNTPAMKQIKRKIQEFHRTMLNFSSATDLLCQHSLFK
UniProt Q13554, sequence (whole entry, looked up): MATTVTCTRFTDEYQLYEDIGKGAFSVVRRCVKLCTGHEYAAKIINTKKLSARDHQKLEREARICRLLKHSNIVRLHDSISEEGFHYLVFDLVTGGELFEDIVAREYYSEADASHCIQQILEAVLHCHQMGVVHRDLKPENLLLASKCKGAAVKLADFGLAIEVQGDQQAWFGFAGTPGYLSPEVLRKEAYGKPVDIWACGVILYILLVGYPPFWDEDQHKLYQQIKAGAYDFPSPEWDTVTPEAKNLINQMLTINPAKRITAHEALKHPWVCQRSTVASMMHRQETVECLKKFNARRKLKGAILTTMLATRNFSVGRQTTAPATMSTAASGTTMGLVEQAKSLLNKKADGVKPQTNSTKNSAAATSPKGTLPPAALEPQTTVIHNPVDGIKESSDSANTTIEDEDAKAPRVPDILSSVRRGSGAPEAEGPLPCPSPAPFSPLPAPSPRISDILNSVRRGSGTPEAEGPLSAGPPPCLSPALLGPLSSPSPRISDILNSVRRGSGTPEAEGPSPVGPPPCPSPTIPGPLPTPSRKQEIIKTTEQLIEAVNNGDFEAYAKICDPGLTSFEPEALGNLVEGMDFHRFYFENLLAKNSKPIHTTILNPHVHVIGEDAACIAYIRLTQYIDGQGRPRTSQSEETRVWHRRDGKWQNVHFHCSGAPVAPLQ

Sample 1 — cell line: U-87 MG; concentration: concentration not given; relative to: DMSO
Compound: CCN1/C(=C/C=C2\CCCC(/C=C/C3=[N+](CC)c4ccccc4C3(C)C)=C2NCCCCCCCCN2CCC(Nc3nc4ccccc4n3Cc3ccc(F)cc3)CC2)C(C)(C)c2ccccc21
measured	log2 fold change
POLR2L mRNA	-1.14
ADAM19 mRNA	-2.1
TCIRG1 mRNA	-1.06
TENM2 mRNA	-2.95
ELAC2 mRNA	-1.03
ZDBF2 mRNA	1.09
FOSL2 mRNA	-0.941
DUSP8 mRNA	1.38
SH2D3C mRNA	2.73
RGS16 mRNA	4.66
KIF18B mRNA	-2.74
CENPF mRNA	-2.16
ITGA5 mRNA	-1.2
ANGPTL2 mRNA	-1.86
KRTAP1-5	-3.82
SIGLEC15 mRNA	-1.5

Sample 2 — concentration: 1 µM
Structure (SMILES): CC[C@@]1(c2cccc(-c3c(F)cncc3OC)c2)C2=C(Nc3n[nH]cc31)[C@H](F)C(C)(C)CC2=O (single isomer, unassigned)
target	read-out	technique	relative to	remaining binding [%]
SIK1 (Homo sapiens, UniProt P57059)		KINOMEscan		100
MET (Homo sapiens, UniProt P08581)	binding	competition with immobilised ligand		93
Insulin receptor (INSR, Homo sapiens, UniProt P06213)	kinase binding	KINOMEscan	DMSO control	80
EGFR (Homo sapiens, UniProt P00533, del747-750/T751S)	kinase binding	KINOMEscan	DMSO control	93
FGR (Homo sapiens, UniProt P09769)	kinase binding	KINOMEscan	DMSO control	100
CAMK2B (Homo sapiens, UniProt Q13554)	binding	competition with immobilised ligand		88
EGFR (Homo sapiens, UniProt P00533, del747-752/P753S)	binding	competition with immobilised ligand		89
TEK (Homo sapiens, UniProt Q02763)	kinase binding	KINOMEscan	DMSO control	65
MYLK3 (Homo sapiens, UniProt Q32MK0)	kinase binding	KINOMEscan	DMSO control	83
CDK13 (Homo sapiens, UniProt Q14004)	binding	competition with immobilised ligand		70
MAP3K10 (Homo sapiens, UniProt Q02779)	kinase binding	KINOMEscan	DMSO control	100
Myosin-IIIa (MYO3A, Homo sapiens, UniProt Q8NEV4)	kinase binding	KINOMEscan	DMSO control	75
PIK3CA (Homo sapiens, UniProt P42336, I800L)	binding	competition with immobilised ligand		61
PIP5K1C (Homo sapiens, UniProt O60331)	binding	competition with immobilised ligand		100
PRKACA (Homo sapiens, UniProt P17612)	kinase binding	KINOMEscan	DMSO control	87
HASPIN (Homo sapiens, UniProt Q8TF76)	binding	competition with immobilised ligand		62
BMX (Homo sapiens, UniProt P51813)	kinase binding	KINOMEscan	DMSO control	100
MERTK (Homo sapiens, UniProt Q12866)	binding	competition with immobilised ligand		88

Sample 3 — read-out: thermal unfolding; technique: differential scanning fluorimetry; concentration: 5.5 µM; direction: higher = more unfolded
Compound: C[C@@H]1CN(c2ccc(-c3cc(C(=O)NCCOCCOCCOCCOCCNC(=O)/C=C/c4[nH]cc(C(=O)N[C@@H](CC(N)=O)c5ccc(F)c(Cl)c5)c4-c4ccc(Cl)cc4F)ccc3F)cc2NC(=O)c2c[nH]c(=O)cc2C(F)(F)F)C[C@H](C)N1C
WDR5: WD repeat-containing protein 5 (WDR5, Homo sapiens, UniProt P61964)
DCAF1: DDB1- and CUL4-associated factor 1 (DCAF1, Homo sapiens, UniProt Q9Y4B6)
UniProt Q9Y4B6, sequence (whole entry, looked up): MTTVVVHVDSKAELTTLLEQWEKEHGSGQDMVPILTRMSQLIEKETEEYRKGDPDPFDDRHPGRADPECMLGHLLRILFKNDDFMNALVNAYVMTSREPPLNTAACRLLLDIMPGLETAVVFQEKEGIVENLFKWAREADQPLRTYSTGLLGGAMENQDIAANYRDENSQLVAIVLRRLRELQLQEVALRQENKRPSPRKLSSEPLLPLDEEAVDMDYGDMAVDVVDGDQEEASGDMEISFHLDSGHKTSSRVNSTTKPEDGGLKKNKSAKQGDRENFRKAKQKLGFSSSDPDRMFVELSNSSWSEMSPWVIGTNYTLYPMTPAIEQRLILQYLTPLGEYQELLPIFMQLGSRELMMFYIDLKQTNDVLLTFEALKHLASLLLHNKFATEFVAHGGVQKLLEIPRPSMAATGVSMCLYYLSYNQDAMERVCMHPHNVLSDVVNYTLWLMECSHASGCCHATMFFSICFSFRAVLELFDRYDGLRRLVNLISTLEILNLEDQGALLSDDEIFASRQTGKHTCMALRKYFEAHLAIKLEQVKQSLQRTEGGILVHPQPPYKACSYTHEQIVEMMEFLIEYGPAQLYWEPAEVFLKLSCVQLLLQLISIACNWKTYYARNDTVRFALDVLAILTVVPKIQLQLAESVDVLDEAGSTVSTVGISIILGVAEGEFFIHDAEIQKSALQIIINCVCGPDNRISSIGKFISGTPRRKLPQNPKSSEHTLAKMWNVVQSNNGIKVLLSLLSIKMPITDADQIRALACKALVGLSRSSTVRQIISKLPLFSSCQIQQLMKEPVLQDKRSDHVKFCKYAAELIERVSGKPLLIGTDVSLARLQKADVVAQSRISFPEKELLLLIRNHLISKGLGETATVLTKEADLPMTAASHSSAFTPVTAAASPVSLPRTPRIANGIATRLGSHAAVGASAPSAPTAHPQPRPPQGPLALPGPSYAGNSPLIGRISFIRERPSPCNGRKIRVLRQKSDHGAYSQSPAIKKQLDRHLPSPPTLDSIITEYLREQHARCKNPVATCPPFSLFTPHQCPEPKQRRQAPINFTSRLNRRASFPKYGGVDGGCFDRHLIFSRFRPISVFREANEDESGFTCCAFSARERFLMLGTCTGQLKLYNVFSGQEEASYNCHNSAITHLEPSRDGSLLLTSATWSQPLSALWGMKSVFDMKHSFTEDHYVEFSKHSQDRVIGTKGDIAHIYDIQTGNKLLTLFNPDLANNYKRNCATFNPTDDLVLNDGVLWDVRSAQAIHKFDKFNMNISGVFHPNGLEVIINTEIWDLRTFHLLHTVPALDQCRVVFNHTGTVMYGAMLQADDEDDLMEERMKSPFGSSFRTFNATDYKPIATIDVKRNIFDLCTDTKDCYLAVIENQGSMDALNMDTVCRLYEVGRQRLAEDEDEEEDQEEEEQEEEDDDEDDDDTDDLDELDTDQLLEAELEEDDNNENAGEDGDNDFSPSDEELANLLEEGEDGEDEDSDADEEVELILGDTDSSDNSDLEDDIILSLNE
target	temperature	SYPRO Orange fluorescence
WDR5	29.4 °C	12700 a.u.
WDR5	75.21 °C	26300 a.u.
DCAF1	86.81 °C	38100 a.u.
WDR5	42.6 °C	15000 a.u.
WDR5	43.4 °C	15000 a.u.
DCAF1	92.01 °C	32800 a.u.
WDR5	93.21 °C	47300 a.u.
DCAF1	69.01 °C	57000 a.u.
WDR5	59.61 °C	15700 a.u.
DCAF1	65.41 °C	59200 a.u.
DCAF1	74.81 °C	50200 a.u.

Sample 4 — read-out: binding; technique: competition with immobilised ligand; concentration: 1 µM
Structure (SMILES): COc1cc(-c2nc3ccc(C(=O)NCCCN4CCN(c5cccc(C)c5C)CC4)cc3n2C2CCC2)cc(OC)c1OC
target	remaining binding [%]
EGFR (Homo sapiens, UniProt P00533, A750P/del747-749)	58
MAP4K3 (Homo sapiens, UniProt Q8IVH8)	98
CDK16 (Homo sapiens, UniProt Q00536)	90
EPHA5 (Homo sapiens, UniProt P54756)	91
CDK4 (Homo sapiens, UniProt P11802)	80
BMPR1A (Homo sapiens, UniProt P36894)	53
PAK3 (Homo sapiens, UniProt O75914)	50
Ribosomal protein S6 kinase alpha-2, C-terminal kinase domain (RPS6KA2, Homo sapiens, UniProt Q15349)	99
MAPK13 (Homo sapiens, UniProt O15264)	100
STK10 (Homo sapiens, UniProt O94804)	45
STK4 (Homo sapiens, UniProt Q13043)	79
PKMYT1 (Homo sapiens, UniProt Q99640)	88
PNCK (Homo sapiens, UniProt Q6P2M8)	93

A few entries again (sample 3):
target	temperature	SYPRO Orange fluorescence
DCAF1	65.41 °C	59200 a.u.
WDR5	29.4 °C	12700 a.u.
DCAF1	74.81 °C	50200 a.u.
WDR5	75.21 °C	26300 a.u.
WDR5	42.6 °C	15000 a.u.
DCAF1	86.81 °C	38100 a.u.
